Measurements from different studies.
Numbers after ± are the reported error. Square brackets hold non-standard residues; d marks the D form. * marks the point of attachment.
B1: bfd 1-73 C43S (Pseudomonas aeruginosa, UniProt Q9HY80); chain MYVCLCQGVTDNQIRDAIYEGCCSYREVREATGVGTQCGKCASLAKQVVRETLNDLQSAQPVPAFGTTAFVAA
B2: CyaY 1-106 (Escherichia coli, UniProt P27838); chain MNDSEFHRLADQLWLTIEERLDDWDGDSDIDCEINGGVLTITFENGSKIIINRQEPLHQVWLATKQGGYHFDLKGDEWICDRSGETFWDLLEQAATQQAGETVSFR
B3: FBLN5 288-448 (Homo sapiens, UniProt Q9UBX5); chain DINECEHRNHTCNLQQTCYNLQGGFKCIDPIRCEEPYLRISDNRCMCPAENPGCRDQPFTILYRDMDVVSGRSVPADIFQMQATTRYPGAYYIFQIKSGNEGREFYMRQTGPISATLVMTRPIKGPREIQLDLEMITVNTVINFRGSSVIRLRIYVSQYPF
B4: acrA (Escherichia coli, UniProt P0AE06); N-terminal lipid at C25; chain CDDKQAQQGGQQMPAVGVVTVKTEPLQITTELPGRTSAYRIAEVRPQVSGIILKRNFKEGSDIEAGVSLYQIDPATYQATYDSAKGDLAKAQAAANIAQLTVNRYQKLLGTQYISKQEYDQALADAQQANAAVTAAKAAVETARINLAYTKVTSPISGRIGKSNVTEGALVQNGQATALATVQQLDPIYVDVTQSSNDFLRLKQELANGTLKQENGKAKVSLITSDGIKFPQDGTLEFSDVTVDQTTGSITLRAIFPNPDHTLLPGMFVRARLEEGLNPNAILVPQQGVTRTPRGDATVLVVGADDKVETRPIVASQAIGDKWLVTEGLKAGDRVVISGLQKVRPGVQVKAQEVTADNNQQAASGAQPEQSKS
UniProt P26151, sequence (whole entry, looked up): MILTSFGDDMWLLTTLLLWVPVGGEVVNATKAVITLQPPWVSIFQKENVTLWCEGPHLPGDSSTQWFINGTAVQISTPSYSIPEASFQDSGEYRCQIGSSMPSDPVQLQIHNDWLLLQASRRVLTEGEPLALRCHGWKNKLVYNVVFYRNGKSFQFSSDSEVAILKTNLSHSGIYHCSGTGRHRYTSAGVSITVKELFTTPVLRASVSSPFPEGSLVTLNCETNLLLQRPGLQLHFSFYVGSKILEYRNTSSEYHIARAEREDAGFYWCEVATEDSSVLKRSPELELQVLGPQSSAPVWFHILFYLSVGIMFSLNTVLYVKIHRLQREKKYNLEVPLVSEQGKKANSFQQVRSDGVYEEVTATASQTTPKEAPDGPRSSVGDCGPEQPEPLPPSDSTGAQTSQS
UniProt P31224, sequence (whole entry, unmodified, looked up): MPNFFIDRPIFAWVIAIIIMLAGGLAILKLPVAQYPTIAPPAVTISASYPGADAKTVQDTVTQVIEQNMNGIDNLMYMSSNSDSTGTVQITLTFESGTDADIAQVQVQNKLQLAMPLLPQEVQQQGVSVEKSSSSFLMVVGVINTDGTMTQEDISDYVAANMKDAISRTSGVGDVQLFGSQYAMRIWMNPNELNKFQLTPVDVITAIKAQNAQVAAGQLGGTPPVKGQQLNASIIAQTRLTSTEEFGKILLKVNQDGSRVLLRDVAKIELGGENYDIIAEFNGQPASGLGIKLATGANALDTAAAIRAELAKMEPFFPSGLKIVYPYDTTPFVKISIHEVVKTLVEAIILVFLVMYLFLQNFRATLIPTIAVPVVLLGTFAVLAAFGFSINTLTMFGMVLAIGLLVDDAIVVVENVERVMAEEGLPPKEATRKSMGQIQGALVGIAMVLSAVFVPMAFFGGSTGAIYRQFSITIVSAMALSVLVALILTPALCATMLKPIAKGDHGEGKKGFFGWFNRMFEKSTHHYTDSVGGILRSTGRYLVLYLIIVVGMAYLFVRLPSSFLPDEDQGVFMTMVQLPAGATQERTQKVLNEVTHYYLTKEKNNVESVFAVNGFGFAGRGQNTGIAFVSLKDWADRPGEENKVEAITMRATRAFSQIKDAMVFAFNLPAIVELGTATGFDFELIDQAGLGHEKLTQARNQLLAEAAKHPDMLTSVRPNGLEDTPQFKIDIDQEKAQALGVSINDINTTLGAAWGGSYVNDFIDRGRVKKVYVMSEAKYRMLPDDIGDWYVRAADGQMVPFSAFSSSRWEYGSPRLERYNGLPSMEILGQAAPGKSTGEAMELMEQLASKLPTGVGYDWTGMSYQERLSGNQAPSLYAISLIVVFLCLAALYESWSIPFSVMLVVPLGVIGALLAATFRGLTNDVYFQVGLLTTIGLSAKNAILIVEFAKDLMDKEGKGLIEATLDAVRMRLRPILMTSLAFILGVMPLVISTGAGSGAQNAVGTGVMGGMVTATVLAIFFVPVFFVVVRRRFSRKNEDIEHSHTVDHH
UniProt Q9KWN0, sequence (whole entry, looked up): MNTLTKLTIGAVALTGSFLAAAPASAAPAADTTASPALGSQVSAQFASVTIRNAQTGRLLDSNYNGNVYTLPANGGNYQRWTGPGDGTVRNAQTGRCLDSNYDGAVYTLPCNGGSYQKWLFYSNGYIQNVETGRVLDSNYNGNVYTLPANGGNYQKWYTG
UniProt Q9Y566, sequence (whole entry, looked up): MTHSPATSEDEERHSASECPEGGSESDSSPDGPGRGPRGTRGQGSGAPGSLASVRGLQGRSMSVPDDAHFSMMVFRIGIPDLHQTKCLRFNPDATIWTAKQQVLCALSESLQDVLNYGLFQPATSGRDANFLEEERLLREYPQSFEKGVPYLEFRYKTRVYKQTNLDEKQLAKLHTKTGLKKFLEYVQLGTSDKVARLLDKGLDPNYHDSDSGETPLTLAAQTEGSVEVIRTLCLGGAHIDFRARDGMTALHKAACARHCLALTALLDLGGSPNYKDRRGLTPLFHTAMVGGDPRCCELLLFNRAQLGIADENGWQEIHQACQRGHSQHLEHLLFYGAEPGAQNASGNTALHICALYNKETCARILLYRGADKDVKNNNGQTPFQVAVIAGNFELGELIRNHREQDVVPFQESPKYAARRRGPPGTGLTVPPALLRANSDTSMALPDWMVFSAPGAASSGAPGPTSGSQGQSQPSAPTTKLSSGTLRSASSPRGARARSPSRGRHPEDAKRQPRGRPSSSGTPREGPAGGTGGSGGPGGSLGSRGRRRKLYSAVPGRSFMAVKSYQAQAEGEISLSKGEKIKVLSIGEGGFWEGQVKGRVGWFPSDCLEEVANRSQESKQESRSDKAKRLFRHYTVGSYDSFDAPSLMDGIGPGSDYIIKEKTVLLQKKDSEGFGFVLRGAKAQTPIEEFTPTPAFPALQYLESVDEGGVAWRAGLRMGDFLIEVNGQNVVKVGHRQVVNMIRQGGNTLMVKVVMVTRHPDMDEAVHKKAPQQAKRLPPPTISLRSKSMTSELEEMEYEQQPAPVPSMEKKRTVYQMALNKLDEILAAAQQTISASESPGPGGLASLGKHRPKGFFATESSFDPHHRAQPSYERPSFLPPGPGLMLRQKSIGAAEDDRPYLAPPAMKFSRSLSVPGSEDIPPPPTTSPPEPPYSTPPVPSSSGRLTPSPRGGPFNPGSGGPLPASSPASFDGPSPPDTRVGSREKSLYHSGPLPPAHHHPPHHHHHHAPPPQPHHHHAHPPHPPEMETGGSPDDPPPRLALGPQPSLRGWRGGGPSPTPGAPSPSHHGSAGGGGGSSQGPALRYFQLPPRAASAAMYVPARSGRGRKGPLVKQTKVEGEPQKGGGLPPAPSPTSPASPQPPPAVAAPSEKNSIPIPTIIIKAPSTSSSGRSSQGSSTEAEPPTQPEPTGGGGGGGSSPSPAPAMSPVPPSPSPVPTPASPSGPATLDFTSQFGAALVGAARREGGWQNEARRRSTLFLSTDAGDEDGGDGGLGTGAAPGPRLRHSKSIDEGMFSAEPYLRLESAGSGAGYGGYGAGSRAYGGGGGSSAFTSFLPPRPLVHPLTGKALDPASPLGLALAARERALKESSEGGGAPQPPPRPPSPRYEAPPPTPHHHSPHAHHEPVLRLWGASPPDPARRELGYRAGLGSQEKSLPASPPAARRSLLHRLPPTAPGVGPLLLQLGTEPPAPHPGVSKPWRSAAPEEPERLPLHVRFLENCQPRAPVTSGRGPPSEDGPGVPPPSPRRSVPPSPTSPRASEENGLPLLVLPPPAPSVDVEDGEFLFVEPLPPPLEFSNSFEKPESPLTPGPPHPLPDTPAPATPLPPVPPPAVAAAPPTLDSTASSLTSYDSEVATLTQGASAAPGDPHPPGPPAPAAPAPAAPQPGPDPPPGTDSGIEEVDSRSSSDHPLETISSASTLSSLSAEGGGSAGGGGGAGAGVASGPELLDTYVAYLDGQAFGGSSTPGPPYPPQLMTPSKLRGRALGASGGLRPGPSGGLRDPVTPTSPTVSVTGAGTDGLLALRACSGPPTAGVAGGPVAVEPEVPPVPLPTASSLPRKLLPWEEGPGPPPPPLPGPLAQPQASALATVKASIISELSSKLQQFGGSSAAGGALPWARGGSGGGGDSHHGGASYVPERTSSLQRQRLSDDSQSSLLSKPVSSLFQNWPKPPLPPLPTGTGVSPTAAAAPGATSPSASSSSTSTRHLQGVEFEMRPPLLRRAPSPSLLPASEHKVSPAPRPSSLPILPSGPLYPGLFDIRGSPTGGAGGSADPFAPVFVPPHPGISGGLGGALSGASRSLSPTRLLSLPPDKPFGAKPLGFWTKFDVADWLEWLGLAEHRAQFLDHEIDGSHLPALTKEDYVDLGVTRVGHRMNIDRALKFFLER

`GCTGAGCCGAATGAAAGTTGCCTAATTACTAAGGTGT (dsDNA)` gave a Kd of < 100 nM (HapB/HapC/HapE/HapX HapX 24-158 (Aspergillus fumigatus); SPR; double-stranded DNA, one strand shown; HapX on preformed CBC:DNA).
For `B1 (bfd 1-73 C43S)`, the Kd was 3800 ± 200 nM (bfrB 1-158 extra Met0 (Pseudomonas aeruginosa, UniProt Q9HY79); SPR; pH 7.4, 22 °C).
`FCGRT (UniProt P55899)` has a Kd of 60 nM (protein Fc fusion, IgG1 (Homo sapiens, UniProt Q9KWN0); SPR).
With `ParE2 (Vibrio cholerae)` the Kd was 10 nM (gyrA 2-523 (Escherichia coli, UniProt P0AES4); SPR; apparent, heterogeneous ligand model).
The Kd of `Pebp1 fragment (Rattus norvegicus) (sequence not shown)` is reported as 36400 ± 700 nM (PRKACA fragment (Homo sapiens); BLI; pH 6.5, 20 °C, together with: apo).
`{FITC}-QNTDDVQTSF-OH (ACE2 796-805 (Homo sapiens); N-terminal FITC; FITC = O=C1OC2(c3ccc(O)cc3Oc3cc(O)ccc32)c2ccc(NC(=S)*)cc21)` gave a Kd of 8300 nM (SHANK1 655-761 (Homo sapiens, UniProt Q9Y566); FP; peptide).
With `Fcgr1 (Mus musculus, UniProt P26151)` the Kd was 388 ± 67 nM (Ighg3 Fc domain, C-terminal CGS-21680 conjugate (Mus musculus); SPR).
`melittin` — result for “heat capacity change”: -0.6 kcal/mol/K (membrane partitioning, CD van't Hoff analysis; POPC/POPG LUVs 100:0%; concentration not given, 5 to 60 °C).
For `B2 (CyaY 1-106)`, the Kd was 35 ± 6 nM (IscS/IscU 1-404 (Escherichia coli); BLI; pH 7.5, 25 °C, NaCl 150 mM, together with: IscU 10 µM).
The Kd of `B3 (FBLN5 288-448)` is reported as 187 ± 31 nM (FBN1 31-489 (Homo sapiens, UniProt P35555); ELISA).
`B4 (acrA)` gave a koff of 0.00291 s⁻¹ (acrB C493S/C887S/S1043C (Escherichia coli, UniProt P31224); SPR; pH 7.5, 150 mM NaCl, global fit, Langmuir).
`{FITC}-GFID[pS]D[pT]DVEEE-NH2 (peptide; N-terminal FITC, pS5, pT7, C-terminal amide; FITC = O=C1OC2(c3ccc(O)cc3Oc3cc(O)ccc32)c2ccc(NC(=S)*)cc21; pS = N[C@@H](COP(=O)(O)O)C(=O)O; pT = C[C@@H](OP(=O)(O)O)[C@H](N)C(=O)O)` gave a Kd of 21000 ± 2000 nM (TOPBP1 641-746 Y678A (Homo sapiens, UniProt Q92547); fluorescence polarisation; peptide; pH 7.5, NaCl 150 mM).

Excerpt of the above:
`{FITC}-QNTDDVQTSF-OH (ACE2 796-805 (Homo sapiens); N-terminal FITC; FITC = O=C1OC2(c3ccc(O)cc3Oc3cc(O)ccc32)c2ccc(NC(=S)*)cc21)` gave a Kd of 8300 nM (SHANK1 655-761 (Homo sapiens, UniProt Q9Y566); FP; peptide).
With `Fcgr1 (Mus musculus, UniProt P26151)` the Kd was 388 ± 67 nM (Ighg3 Fc domain, C-terminal CGS-21680 conjugate (Mus musculus); SPR).
